Results from different studies.
Numbers after ± are the reported error.
U2AF2: U2AF2 148-342 (Homo sapiens, UniProt P26368)
UniProt P26368, sequence (whole entry, looked up): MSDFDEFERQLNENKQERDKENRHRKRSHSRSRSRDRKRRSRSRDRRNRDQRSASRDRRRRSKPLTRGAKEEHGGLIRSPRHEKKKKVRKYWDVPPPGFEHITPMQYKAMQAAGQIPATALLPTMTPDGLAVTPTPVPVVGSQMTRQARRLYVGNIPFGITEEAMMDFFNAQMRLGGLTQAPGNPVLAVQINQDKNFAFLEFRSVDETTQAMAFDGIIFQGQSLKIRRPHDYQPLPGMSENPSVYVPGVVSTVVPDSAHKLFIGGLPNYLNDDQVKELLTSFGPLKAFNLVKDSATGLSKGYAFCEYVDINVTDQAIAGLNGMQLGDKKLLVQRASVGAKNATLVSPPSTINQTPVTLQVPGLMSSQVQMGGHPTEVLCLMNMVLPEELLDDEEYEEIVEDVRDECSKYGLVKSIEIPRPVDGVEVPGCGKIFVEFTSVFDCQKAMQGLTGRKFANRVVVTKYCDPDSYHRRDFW
SPT15 full length assumed: SPT15 full length assumed (Saccharomyces cerevisiae, UniProt P13393)
UniProt P13393, sequence (whole entry, looked up): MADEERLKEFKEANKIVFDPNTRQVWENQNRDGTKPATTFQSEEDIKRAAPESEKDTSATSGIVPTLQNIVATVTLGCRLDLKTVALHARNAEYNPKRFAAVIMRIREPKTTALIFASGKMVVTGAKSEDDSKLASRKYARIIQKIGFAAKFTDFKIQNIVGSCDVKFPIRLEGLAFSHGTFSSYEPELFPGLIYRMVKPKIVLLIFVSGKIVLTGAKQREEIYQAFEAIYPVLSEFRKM
CDK5 with p25: Cyclin-dependent kinase 5, with p25 (CDK5, Homo sapiens, UniProt Q00535)
UniProt Q00535, sequence (whole entry, looked up): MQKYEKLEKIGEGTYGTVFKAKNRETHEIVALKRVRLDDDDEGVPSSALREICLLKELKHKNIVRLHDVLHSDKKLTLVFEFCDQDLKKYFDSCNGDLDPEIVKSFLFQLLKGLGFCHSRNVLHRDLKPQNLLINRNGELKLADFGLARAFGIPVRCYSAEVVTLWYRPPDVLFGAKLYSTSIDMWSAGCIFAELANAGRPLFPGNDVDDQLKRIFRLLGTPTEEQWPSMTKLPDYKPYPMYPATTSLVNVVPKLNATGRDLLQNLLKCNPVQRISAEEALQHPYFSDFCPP
B1: human desmocollin-3; sequence looked up; chain RWAPIPCSMQENSLGPFPLFLQQVESDAAQNYTVFYSISGRGVDKEPLNLFYIERDTGNLFCTRPVDREEYDVFDLIAYASTADGYSADLPLPLPIRVEDENDNHPVFTEAIYNFEVLESSRPGTTVGVVCATDRDEPDTMHTRLKYSILQQTPRSPGLFSVHPSTGVITTVSHYLDREVVDKYSLIMKVQDMDGQFFGLIGTSTCIITVTDSNDNAPTFRQNAYEAFVEENAFNVEILRIPIEDKDLINTANWRVNFTILKGNENGHFKISTDKETNEGVLSVVKPLNYEENRQVNLEIGVNNEAPFARDIPRVTALNRALVTVHVRDLDEGPECTPAAQYVRIKENLAVGSKINGYKAYDPENRNGNGLRYKKLHDPKGWITIDEISGSIITSKILDREVETPKNELYNITVLAIDKDDRSCTGTLAVNIEDVNDNPPEILQEYVVICKPKMGYTDILAVDPDEPVHGAPFYFSLPNTSPEISRLWSLTKVNDTAARLSYQKNAGFQEYTIPITVKDRAGQAATKLLRVNLCECTHPTQCRATSRSTGVILGKWAILAILLGIALLFSVLLTLVCGVFGATKGKRFPEDLAQQNLIISNTEAPGDDRVCSANGFMTQTTNNSSQGFCGTMGSGMKNGGQETIEMMKGGNQTLESCRGAGHHHTLDSCRGGHTEVDNCRYTYSEWHSFTQPRLGEKLHRCNQNEDRMPSQDYVLTYNYEGRGSPAGSVGCCSEKQEEDGLDFLNNLEPKFITLAEACTKR
B2: PPM1A (human); sequence looked up; chain GAFLDKPKMEKHNAQGQGNGLRYGLSSMQGWRVEMEDAHTAVIGLPSGLESWSFFAVYDGHAGSQVAKYCCEHLLDHITNNQDFKGSAGAPSVENVKNGIRTGFLEIDEHMRVMSEKKHGADRSGSTAVGVLISPQHTYFINCGDSRGLLCRNRKVHFFTQDHKPSNPLEKERIQNAGGSVMIQRVNGSLAVSRALGDFDYKCVHGKGPTEQLVSPEPEVHDIERSEEDDQFIILACDGIWDVMGNEELCDFVRSRLEVTDDLEKVCNEVVDTCLYKGSRDNMSVILICFPNAPKVSPEAVKKEAELDKYLECRVEEIIKKQGEGVPDLVHVMRTLASENIPSLPPGGELASKRNVIEAVYNRLNPYKNDDTDSTSTDDMW
B3: human P4HA1; sequence looked up; chain HPGFFTSIGQMTDLIHTEKDLVTSLKDYIKAEEDKLEQIKKWAEKLDRLTSTATKDPEGFVGHPVNAFKLMKRLNTEWSELENLVLKDMSDGFISNLTIQRQYFPNDEDQVGAAKALLRLQDTYNLDTDTISKGNLPGVKHKSFLTAEDCFELGKVAYTEADYYHTELWMEQALRQLDEGEISTIDKVSVLDYLSYAVYQQGDLDKALLLTKKLLELDPEHQRANGNLKYFEYIMAKEKDVNKSASDDQSDQKTTPKKKGVAVDYLPERQKYEMLCRGEGIKMTPRRQKKLFCRYHDGNRNPKFILAPAKQEDEWDKPRIIRFHDIISDAEIEIVKDLAKPRLRRATISNPITGDLETVHYRISKSAWLSGYENPVVSRINMRIQDLTGLDVSTAEELQVANYGVGGQYEPHFDFARKDEPDAFKELGTGNRIATWLFYMSDVSAGGATVFPEVGASVWPKKGTAVFWYNLFASGEGDYSTRHAACPVLVGNKWVSNKWLHERGQEFRRPCTLSELE
B4: human septin-10; sequence looked up; chain MASSEVARHLLFQSHMATKTTCMSSQGSDDEQIKRENIRSLTMSGHVGFESLPDQLVNRSIQQGFCFNILCVGETGIGKSTLIDTLFNTNFEDYESSHFCPNVKLKAQTYELQESNVQLKLTIVNTVGFGDQINKEESYQPIVDYIDAQFEAYLQEELKIKRSLFTYHDSRIHVCLYFISPTGHSLKTLDLLTMKNLDSKVNIIPVIAKADTVSKTELQKFKIKLMSELVSNGVQIYQFPTDDDTIAKVNAAMNGQLPFAVVGSMDEVKVGNKMVKARQYPWGVVQVENENHCDFVKLREMLICTNMEDLREQTHTRHYELYRRCKLEEMGFTDVGPENKPVSVQETYEAKRHEFHGERQRKEEEMKQMFVQRVKEKEAILKEAERELQAKFEHLKRLHQEERMKLEEKRRLLEEEIIAFSKKKATSEIFHSQSFLATGSNLRKDKDRKNSNFL

Molecule | target or system | assay | system | conditions | scale | quantity | result
Peginesatide | UT7/EPO | phosphorylation, agonist, item: phospho-ERK1/2 |  | 10 min | relative to: rHuEPO maximum | Emax | 92 ± 8%
maraviroc |  | qPCR | HIV-infected mice, frontal cortex | i.p., 120 mg/kg twice daily, 3 weeks post infection | relative to: HIV-infected untreated mice, decrease | mRNA level | 1.83 fold
UACAACUUA (ssRNA) | U2AF2 | sequencing of bound RNA | RNA | motif only |  | Kd | 1400 nM
ELDILNPSY | Jurkat expressing engineered TCR | NFAT-eGFP reporter, fluorescence microscopy | peptide | concentration not given, HLA-A*01:01 on EL4 cells |  | GFP-positive cells | 0.641%
DNA 1 AGCTAAAATTTGGACAGCTCTCATTACTAAATTAATCAATTCAATCGGTCC / DNA 2 GGACCGATTGACTTGATTAATTTAGTAATGAGAGCTGTCCAAATTTTAGCT (dsDNA; 5'-amino-C6 primer) | SPT15 full length assumed | array | double-stranded DNA | TBP alone |  | Kd | 0.63 ± 0.03 nM
CUUUGGUGU (ssRNA) | U2AF2 | sequencing of bound RNA | RNA | motif only |  | Kd | 8550 nM
KEAFWDKCLSVINLMSSKMLQINA | CDK5 with p25 | phosphotransferase activity, radiometric | peptide | concentration not given, 10% DMSO, added: histone substrate | relative to: p5-WT peptide | activity change | 37%
epoetin alfa | UT7/EPO | RT-qPCR, item: PHLDA1 |  | concentration not given, 90 min, normalized to HPRT1 | relative to: vehicle | mRNA level | 4.1 fold
PSMD7 (human) | CYB5R4 knockout human cells | PP4 interaction, 3xFLAG-PP4C IP-MS |  | concentration not given | relative to: CYB5R4 KO over parental | log2 fold change | -0.89
GSGAGIATEV | construct, MBP fusion, human SCRIB, PDZ 3-4 | automated holdup | peptide, crude extract | concentration not given, corrected by standard peak, unit not given | relative to: biotin control resin, higher = stronger binding | binding intensity | 0.0187
B1 (human desmocollin-3) | CYB5R4 knockout human cells | PP4 interaction, 3xFLAG-PP4C IP-MS |  | concentration not given | relative to: CYB5R4 KO over parental | log2 fold change | 0.84
GSGAGIESNV | construct, MBP fusion, human SCRIB, PDZ 3-4 | surface plasmon resonance | peptide | concentration not given | higher = stronger binding | normalised SPR binding response | 20.7 normalised RU
GAAGCGAGTACGGAGGTACCAGCTGGTCTCCGTAGTCAAGTCAATCGGTCC (dsDNA; 5'-amino-C6 primer) | SPT15 full length assumed | array | double-stranded DNA, one strand shown | TBP alone |  | Kd | 1.5 ± 0.1 nM
MTVCNASQRQAHAQATAVSL | H1264 lung adenocarcinoma | phage binding output/input | peptide |  | relative to: control phage | selectivity ratio | 0.36 ± 0.21
colistin | Klebsiella pneumoniae | broth microdilution | clinical isolate RKI-No 373/16-1 |  |  | MIC | 32 µg/mL
heparin sodium |  |  | human | intravenous infusion, 8 IU/kg/h, day 1 to 6 |  | ACT time to Emax | 14 h
B2 (PPM1A) | PP6C (human) | co-immunoprecipitation, IP-MS | CYB5R4 knockout cells | concentration not given | relative to: CYB5R4 knockout over parental | log2 fold change | -0.58
PMESGICTIV | construct, MBP fusion, human SCRIB, PDZ 3-4 | automated holdup | peptide, purified PDZ protein | concentration not given, unit not given | relative to: biotin control resin, higher = stronger binding | binding intensity | 0.0266
B3 (human P4HA1) | CYB5R4 knockout human cells | PP6 interaction, 3xFLAG-PP6C IP-MS |  | concentration not given | relative to: CYB5R4 KO over parental | log2 fold change | 1.67
GSGAGKETSF | construct, MBP fusion, human SCRIB, PDZ 3-4 | automated holdup | peptide, crude extract | concentration not given, uncorrected, unit not given | relative to: biotin control resin, higher = stronger binding | binding intensity | 0.614
B4 (human septin-10) | CYB5R4 knockout human cells | PP4 interaction, 3xFLAG-PP4C IP-MS |  | concentration not given | relative to: CYB5R4 KO over parental | log2 fold change | -0.21
KEAFWDRCLSAINLMSSKMLQINA | CDK5 with p25 | phosphotransferase activity, radiometric | peptide | concentration not given, 10% DMSO, added: histone substrate | relative to: p5-WT peptide | activity change | 52%
human HADHA | CYB5R4 knockout human cells | PP4 interaction, 3xFLAG-PP4C IP-MS |  | concentration not given | relative to: CYB5R4 KO over parental | log2 fold change | -0.35
cotadutide |  | metabolomics, item: hepatic phenylalanine | ob/ob mice on AMLN diet, NASH model, liver | dose not given |  | metabolite level | 1.06 ± 0.04 scaled intensity
